Assay results of several laboratories.
Protocols differ between the studies behind these lines. Numbers after ± are the reported error.

`C[C@H](NC(=O)c1c(C(F)F)nn(C)c1Oc1cccc(C(F)(F)F)c1)c1ccc(C(=O)O)cc1` has a not evaluable of 14.3% (irRECIST; human, advanced tumours; 750 mg; best overall response).
For `CC(C)NCC(O)c1ccc(O)c(O)c1` (stereo not drawn), the sarcomere length was 1.68 µm (ventricular cardiomyocytes, C57BL/6 mouse; dose not given, 0.788 s).
With `NC(=O)c1cnc2[nH]ccc2c1N[C@@H]1[C@@H]2CC3C[C@H]1C[C@@](O)(C3)C2` the percent change was 0.07% (CD4+ effector memory T cells, flow cytometry; Japanese humans, peripheral blood; 20 mg single dose; relative to: baseline).
The CR of `C=CC(=O)N1CCC(c2ccc(C(N)=O)c(-c3ccc(Oc4ccccc4)cc3)n2)CC1` is reported as 24.5% (tumour response, Lugano classification; patients with relapsed/refractory MCL; dose not given, independent review, 16.4 months follow-up).
Under “forelimb grip strength”, `COc1ccc2c(c1)CN(Cc1ccc(C(=O)O)cc1)CCS2` is recorded as 0.166 ± 0.008 kgf (exercised mdx mice; 50 mg/kg, 3 weeks).
`COc1ccc(F)cc1C(=O)NCc1ccc(-c2nn([C@@H](C)C(F)(F)F)c(N)c2C(N)=O)cc1`: “response, best overall, PR, PR-L” 80% (relapsed/refractory CLL patients; dose not given, monotherapy).
Under “plasma cytokine and chemokine levels”, `O=C(NO)c1ccc(CN(c2cnccn2)c2cnccn2)cc1` is recorded as “no effect” (human; dose not given, patients, paired sample, pre-treatment on A).
For `N#Cc1ccc2c(c1)[C@H]1CCCN(C(=O)c3ccc4[nH]cnc4c3)[C@H]1C2`, “total urinary corticosteroid excretion” read 200% (T2DM patients with overweight or obesity, urine; oral, 160 mg, day 14, 0-24 h, multiple dosing, adjusted geometric mean; relative to: baseline day -1, -24-0 h).
`OC(CCN1CCCCC1)(c1ccccc1)C1CC2C=CC1C2` (stereo not drawn): “power, EEG, Alpha, O2-Pz” 18.3 µV² (resting-state EEG; healthy elderly humans; oral, 4 mg, eyes closed, LS mean).
`N#Cc1ccc2c(c1)[C@H]1CCCN(C(=O)c3ccc4[nH]cnc4c3)[C@H]1C2` — result for “change from baseline”: 3.7 pmol/L (measured: ACTH; human, Phase II trial; oral, 80 mg once daily, HPA axis, mean).
With `Cc1ccc(C(=O)OCc2ccc([C@@H](CN)C(=O)Nc3ccc4cnccc4c3)cc2)c(C)c1` the IOP was 33.8 mmHg (tonometry; NZW rabbit, magnetic bead-induced ocular hypertension; ocular, 0.02%, 4 h).
`CCc1c(C)nc(-c2ccc(Cl)s2)nc1Nc1ccc(CC(=O)O)cc1` — result for “F4/80-positive liver cells”: “decreased” (C57BL/6J mice, MCD diet; intraperitoneal, 0.3 mg/kg daily, final two weeks of 6-week diet).
`CC(C)[C@H](C(=O)Nc1ccc(C(=O)NO)cc1)c1ccccc1`: “tumour volume change” 231% (volumetric MRI; human, left parieto-occipital meningioma; dose not given, day 1512; relative to: baseline).
`Cc1cc(C)c(CNC(=O)c2cc(Cl)c3c(c2C)O[C@@](C)([C@H]2CC[C@H](N(C)C)CC2)O3)c(=O)[nH]1` — result for “best response not assessed”: 8% (IWG criteria; relapsed/refractory PTCL-NOS patients; dose not given).
`CN[C@@H](C)C(=O)N[C@H]1CN(S(=O)(=O)c2cccc(S(=O)(=O)N3CC[C@H]4CC[C@@H](C(=O)NC(c5ccccc5)c5ccccc5)N4C(=O)[C@@H](NC(=O)[C@H](C)NC)C3)c2)CC[C@H]2CC[C@@H](C(=O)NC(c3ccccc3)c3ccccc3)N2C1=O` — result for “best response partial response”: 20% (RECIST 1.1; advanced pancreatic cancer patients; dose not given, efficacy-evaluable, with: AG).
Under “log2 fold change”, `N#Cc1ccc2c(-c3ccncc3)c(-c3ccc(F)cc3)nn2c1` is recorded as 0.382 (kinase binding, competitor, MIB/MS competition, measured: SSK2; Candida albicans cell lysate; 10 µM; relative to: DMSO).
`CC(C)c1ncc(C(=O)N2CCOC3(CCN(Cc4ccc(F)c(CCNC[C@H](O)c5ccc(O)c6[nH]c(=O)sc56)c4)CC3)C2)s1` — result for “placebo-corrected trough FEV1 change”: 29 mL (COPD patients; inhaled, 50 µg twice daily, 12 h postdose, dosing day 1; relative to: baseline).
With `C[C@@H](O)CCOC(=O)C[C@@H](C)O` the plasma glucagon was 18 pM (human; oral drink, dose not given, 90 min post dose, median, all participants).
